# Assay results gathered from unrelated publications.
# Observed: metabolic stability
# Matrix: liver microsomes
SMILES,system,setting,half-life
Cc1ncsc1-c1ccc([C@@H]2CCCCCCNC(=O)C[C@@H]3N=C(c4ccc(cc4)OCCCCCC(=O)N[C@@H](C(C)(C)C)C(=O)N4C[C@H](O)C[C@H]4C(=O)N2)c2c(sc(C)c2C)-n2c(C)nnc23)cc1,mouse,1 µM,11.2 min
C/C(=N\OCCN(C)Cc1ccccc1)c1ccc(C(F)(F)F)cc1,mouse,,1.98 min
C#CCCCC(O)/C=C/C(=O)NC1(c2ccc(-c3nc4ccn5c(=O)[nH]nc5c4cc3-c3ccccc3)cc2)CCC1 (centres unmarked),CD-1 mouse,"1 µM, pH 7.4",28.7 min
OCCn1nc(-c2ccccc2)c2c(Cl)c(-c3ccccc3)nnc21,mouse,1 µM,< 5 min
Cc1c(Cc2cc(F)cc(OC(C)(C)C(=O)O)c2)c2ccc(C(=O)N[C@@H](C)c3ccc(C(C)(C)C)cc3)cc2n1CC1CCC1,mouse,,> 60 min
O=C(Oc1cccc(CSc2ncccn2)c1)c1ccc([N+](=O)[O-])cc1,mouse,,< 1 min
N=C(NCC[C@H](NC(=O)c1noc(-c2cc(F)ccc2F)n1)c1nc2ccccc2[nH]1)c1ccc([N+](=O)[O-])o1,mouse,1 µM,2.2 min
Cc1c(Cc2cccc(OC(C)(C)C(=O)O)c2)c2ccc(C(=O)NCc3cccc(C(C)(C)C)c3)cc2n1CC1CCC1,mouse,,31 min
N#Cc1c(-c2ccco2)cc(-c2cccs2)[nH]c1=O,mouse,1 µM,9.6 min
CCn1c(C)c(Cc2cccc(OC(C)(C)C(=O)O)c2)c2ccc(C(=O)N[C@@H](C)c3cccc(C(C)(C)C)c3)cc21,mouse,,68.5 min
CN1CCN(C(=O)c2ccc(-c3cc4nccc(-c5ccc6cnccc6c5)c4o3)cc2)CC1,mouse,,4.6 min
CC(C)n1ncc2c(C(=O)NC3(C)CNC3)cc(C3CC3)nc21,mouse,,> 145 min
O=c1c(-c2cnn(-c3ccccc3)c2)c(C(F)(F)F)oc2c(O)c(O)ccc12,mouse,,11 min
CC(C)n1ncc2c(C(=O)NC[C@@H](C)N)cc(C3CC3)nc21,mouse,,> 145 min
O=C(Nc1cc(-c2ccnc3[nH]ccc23)c(Cl)cn1)[C@H]1CCC[C@@H](NC(=O)C(F)(F)F)C1,mouse,,21.6 min
Cc1c(Cc2cc(Cl)cc(OC(C)C(=O)O)c2)c2ccc(C(=O)NC(C)c3ccc(C(C)(C)C)cc3)cc2n1CC1CC1 (centres unmarked),mouse,,> 60 min
C=C(NC(=O)c1csc(-c2nc3c(cc2O)-c2nc(cs2)C(=O)NC(C(C)O)C(=O)NC(=C(C)OC)c2nc(cs2)C(=O)NC2c4nc(cs4)C(=O)NC(COC(=O)c4c5c6c(cccc6n4O)COC(=O)C(OC4CC(C)(O)C(N(C)C)C(C)O4)C2OC5)c2nc-3cs2)n1)C(N)=O (centres unmarked),mouse,2 µM,357 min
Cc1c(Cc2ccc(Cl)c(O[C@@H](C)C(=O)O)c2)c2ccc(C(=O)N[C@@H](C)c3ccc(C(C)(C)C)cc3)cc2n1C,mouse,,55 min
Nc1nc(SCc2ccc(Cl)cc2)nn1S(=O)(=O)c1ccc2c(c1)CCO2,mouse,"1 µM, pH 7.4",3 min
C/C(=N\OCCN1CCCC1)c1ccc(C(F)(F)F)cc1,mouse,,10 min
CC(C)(C)[C@H](NC(=O)c1ccc(Oc2ccc(C(=O)N[C@H]3CCCC[C@@H]3O)cc2)cc1)C(=O)NCCN1CCCC1,mouse,"1 µM, pH 7.4",113 min
CNC(=O)C1CCCN(C(=O)C2CC3CCC2N3C(=O)[C@@H]2C[C@@H](O)CN2C(=O)NCc2cccc(Cl)c2F)C1 (mixture of isomers),mouse,,134 min
Cc1c(Cc2cccc(OC(C)(C)C(=O)O)c2)c2ccc(C(=O)N[C@@H](C)c3cccc(C(C)(C)C)c3)cc2n1CC1CCC1,mouse,,> 60 min
CC(C)n1ncc2c(C(=O)NCC3CCN3)cc(C3CC3)nc21 (centres unmarked),mouse,,23.4 min
C#CCCCC(F)/C=C/C(=O)NC1(c2ccc(-c3nc4ccn5c(=O)[nH]nc5c4cc3-c3ccccc3)cc2)CCC1 (centres unmarked),CD-1 mouse,"1 µM, pH 7.4",15.4 min
CNCCNC(=O)c1cc(C2CC2)nc2c1cnn2C(C)C,mouse,,12.2 min
CCc1cccc([C@H](C)NC(=O)c2ccc3c(Cc4cccc(OC(C)(C)C(=O)O)c4)c(C)n(C)c3c2)c1,mouse,,54 min
[2H]C([2H])(N)C([2H])([2H])NC(=O)c1cc(C2CC2)nc2c1cnn2C(C)C,mouse,,> 145 min
Cc1c(Cc2ccc(Cl)c(OC(C)C(=O)O)c2)c2ccc(C(=O)NC(C)c3ccc(C(C)(C)C)cc3)cc2n1CC1CC1 (centres unmarked),mouse,,> 60 min

# For quick reference, copied from above:
SMILES,system,setting,half-life
O=C(Nc1cc(-c2ccnc3[nH]ccc23)c(Cl)cn1)[C@H]1CCC[C@@H](NC(=O)C(F)(F)F)C1,mouse,,21.6 min
CNC(=O)C1CCCN(C(=O)C2CC3CCC2N3C(=O)[C@@H]2C[C@@H](O)CN2C(=O)NCc2cccc(Cl)c2F)C1 (mixture of isomers),mouse,,134 min
[2H]C([2H])(N)C([2H])([2H])NC(=O)c1cc(C2CC2)nc2c1cnn2C(C)C,mouse,,> 145 min
CCn1c(C)c(Cc2cccc(OC(C)(C)C(=O)O)c2)c2ccc(C(=O)N[C@@H](C)c3cccc(C(C)(C)C)c3)cc21,mouse,,68.5 min
